Results pooled from the literature.
Numbers after ± are the reported error.

CC(C)(C)NCC(SS(=O)(=O)O)c1ccccc1 (stereo not shown)  liver weight (Schistosoma mansoni-infected mice; 100 mg/kg single, day 42, perfusion day 56): 4.6 g
O=C(N/N=C/c1ccc2c(ccc[n+]2Cc2ccccc2)c1)C(=O)N/N=C/c1ccc2c(ccc[n+]2Cc2ccccc2)c1  ΔTm (MYC parallel G4 DNA; FRET melting; 1 µM, DNA 0.2 µM, added: duplex DNA competitor 10 µM): 3.8 ± 0.5 °C
C=CC(=O)N1[C@@H](c2ccc3c(c2)OCO3)c2[nH]c3ccccc3c2C[C@H]1C(=O)N1CCN(C)CC1  log2 fold change (CCNE1 WT-3xFLAG:CDK2 complex; co-IP TMT proteomics, item: CDKN1A; HEK-293T; 20 µM, 6 h; reference: DMSO): 0.2
CN1CCCNC(=O)c2cccc(c2)C(=O)NCCCN(C)CCCNc2cccc3c2C(=O)c2cccc(c2C3=O)NCCC1  log2 fold change (SAS; RNA-seq, item: ZFX mRNA; 1 µM, 6 h; reference: untreated cells): 0.505
CCc1nnc(NC(=O)c2cccc(C(=O)Nc3nnc(CC)s3)n2)s1  Emax (Mus musculus; gene silencing, high-content imaging; LDR reporter GFP cells; 30 h, retest, mean of two runs): 34%
COC1OC(C)C(OS(=O)(=O)O)C(OC2OC(C)C(OS(=O)(=O)O)C(OC3OC(C)C(OS(=O)(=O)O)C(OC4OC(C)C(OS(=O)(=O)O)C(OC5OC(C)C(OS(=O)(=O)O)C(OC6OC(C)C(OS(=O)(=O)O)C(OC7OC(C)C(OS(=O)(=O)O)C(OC8OC(C)C(OS(=O)(=O)O)C(OC9OC(C)C(OS(=O)(=O)O)C(OC%10OC(C)C(OS(=O)(=O)O)C(OC%11OC(C)C(OS(=O)(=O)O)C(OS(=O)(=O)O)C%11O)C%10O)C9O)C8O)C7O)C6O)C5O)C4O)C3O)C2O)C1O (stereo not shown)  prothrombin time (human plasma; 128 µg/mL): 14.7 ± 0.5 s
C[n+]1cc(/C=N/NC(=O)c2cccc(C(=O)N/N=C/c3cc4ccccc4[n+](C)c3)n2)cc2ccccc21  ΔTm (hp2 hairpin duplex DNA; FRET melting; 1 µM, added: ds26 10 µM): 0.6 ± 0.3 °C
COC1CN([C@H]2CC[C@H]([C@@]3(C)Oc4c(Cl)cc(C(=O)NCc5c(SC)cc(C)[nH]c5=O)c(C)c4O3)CC2)C1  log2 fold change (RNA-seq, item: MTUS1 mouse homolog; mouse, HT-1376 xenograft, whole blood; dose not given; reference: vehicle): 0.078
COC1OC(C)C(OC2OC(C)C(O)C(OC3OC(C)C(OC4OC(C)C(O)C(OC5OC(C)C(O)C(OS(=O)(=O)O)C5OS(=O)(=O)O)C4OS(=O)(=O)O)C(OS(=O)(=O)O)C3OS(=O)(=O)O)C2OS(=O)(=O)O)C(OS(=O)(=O)O)C1OS(=O)(=O)O (stereo not shown)  prothrombin time prolongation (human plasma; 128 µg/mL; reference: control): 0.95 fold
CCC(=O)N1CCN(c2ccc(NC(=O)c3ccc([N+](=O)[O-])o3)cc2Cl)CC1  Emax (Mus musculus; gene silencing, high-content imaging; LDR reporter GFP cells; 30 h, retest run 1): 46%
Nc1ncc(-c2cc(-c3cnn(CC(F)(F)F)c3)ncc2F)nc1C(=O)NC1CNCC(F)C1 (stereo not shown)  remaining binding (MRCKB; KINOMEscan competition binding; 1 µM; reference: DMSO control): 81%
C=CC(=O)Nc1cccc(Cn2ncc3cnc(Nc4cnn(CCOC)c4)nc32)c1  percent of control (GSK3B human; binding, KINOMEscan; 100 nM; lower = stronger binding): 100%
O=C(N/N=C/c1cc[n+](Cc2ccccc2)c2ccccc12)c1ccc2ccc3ccc(C(=O)N/N=C/c4cc[n+](Cc5ccccc5)c5ccccc45)nc3c2n1  ΔTm (MYC parallel G4 DNA; FRET melting; 1 µM, DNA 0.2 µM): 11.9 ± 0.4 °C
COC1OC(C)C(OS(=O)(=O)O)C(OC2OC(C)C(OS(=O)(=O)O)C(OC3OC(C)C(OS(=O)(=O)O)C(OC4OC(C)C(OS(=O)(=O)O)C(OC5OC(C)C(OS(=O)(=O)O)C(OC6OC(C)C(OS(=O)(=O)O)C(OC7OC(C)C(OS(=O)(=O)O)C(OC8OC(C)C(OS(=O)(=O)O)C(OC9OC(C)C(OS(=O)(=O)O)C(OC%10OC(C)C(OS(=O)(=O)O)C(OS(=O)(=O)O)C%10O)C9O)C8O)C7O)C6O)C5O)C4O)C3O)C2O)C1O (stereo not shown)  prothrombin time (human plasma; 128 µg/mL): 14.7 ± 0.6 s
C[n+]1cc(/C=N/NC(=O)C(=O)N/N=C/c2cc3ccccc3[n+](C)c2)cc2ccccc21  ΔTm (hp2 hairpin duplex DNA; FRET melting; 1 µM, added: ds26 10 µM): 0.6 ± 0.3 °C
N=C(S)N/N=C/c1ncc(C(F)(F)F)cc1Cl  AC50 (Mus musculus; gene silencing, high-content imaging; LDR reporter GFP cells; retest run 2): 15.8 µM
COC1OC(C)C(OC2OC(C)C(O)C(OC3OC(C)C(OC4OC(C)C(O)C(OC5OC(C)C(OC6OC(C)C(O)C(OC7OC(C)C(OC8OC(C)C(O)C(OC9OC(C)C(OC%10OC(C)C(O)C(OC%11OC(C)C(O)C(OS(=O)(=O)O)C%11OS(=O)(=O)O)C%10OS(=O)(=O)O)C(OS(=O)(=O)O)C9OS(=O)(=O)O)C8OS(=O)(=O)O)C(OS(=O)(=O)O)C7OS(=O)(=O)O)C6OS(=O)(=O)O)C(OS(=O)(=O)O)C5OS(=O)(=O)O)C4OS(=O)(=O)O)C(OS(=O)(=O)O)C3OS(=O)(=O)O)C2OS(=O)(=O)O)C(OS(=O)(=O)O)C1OS(=O)(=O)O (stereo not shown)  prothrombin time (human plasma; 128 µg/mL): 15.1 ± 0.2 s
Cc1ccc(C(C)C)c(OCc2ccc(C(=O)N/N=C/c3cccc(O)c3O)cc2)c1  Emax (Mus musculus; gene silencing, high-content imaging; LDR reporter GFP cells; 30 h, retest run 2): 41%
C[n+]1cc(/C=N/NC(=O)c2ccc3ccc(C(=O)N/N=C/c4cc5ccccc5[n+](C)c4)nc3n2)cc2ccccc21  ΔTm (MYC parallel G4 DNA; FRET melting; 1 µM, DNA 0.2 µM, added: duplex DNA competitor 10 µM): 6.7 ± 0.1 °C
Cc1ncsc1-c1ccc(C(C)NC(=O)C2CC(O)CN2C(=O)C(NC(=O)CCCCCCCCCCN2CCCC(Nc3ncc(Cl)c(Nc4ccccc4S(=O)(=O)C(C)C)n3)C2)C(C)(C)C)cc1 (stereo not shown)  log2 fold change (22Rv1; RNA-seq, item: LMLN-AS1; concentration not given; reference: DMSO): -2
C[n+]1ccc(/C=N/NC(=O)c2cccc(C(=O)N/N=C/c3cc[n+](C)c4ccccc34)n2)c2ccccc21  delta Tm (MYC promoter parallel G-quadruplex DNA; UV melting; 6 µM, 1 mM potassium, added: DNA 3 µM): 27.5 °C
COc1ccc2c(C)nc(Nc3nc(O)cc(-c4ccccc4)n3)nc2c1  Emax (Mus musculus; gene silencing, high-content imaging; LDR reporter GFP cells; 30 h, confirmation, mean of two runs): 100%
C=C(NC(=O)c1csc(-c2nc3c(cc2O)-c2nc(cs2)C(=O)NC(C(C)O)C(=O)NC(=C(C)OC)c2nc(cs2)C(=O)NC2c4nc(cs4)C(=O)NC(COC(=O)c4c5c6c(cccc6n4O)COC(=O)C(OC4CC(C)(O)C(N(C)C)C(C)O4)C2OC5)c2nc-3cs2)n1)C(N)=O (stereo not shown)  lung bacterial load at ED50 (Streptococcus pneumoniae; -25, immunocompromised mice, lung infection; qd dosing): 5.34 log CFU/g
O=[N+]([O-])C(=C\Nc1ccccc1O)/C=N/c1ccccc1O  Emax (Mus musculus; gene silencing, high-content imaging; LDR reporter GFP cells; 30 h, retest run 2): 38%
C[n+]1ccc(/C=N/NC(=O)c2cccc(C(=O)N/N=C/c3cc[n+](C)cc3)c2)cc1  ΔTm (hp2 hairpin duplex DNA; FRET melting; 1 µM, added: ds26 10 µM): 0 ± 0.1 °C
CC(C)(C)c1cc(-c2ccc3cccnc3n2)nc(-c2ccc3cccnc3n2)c1.COc1ccncc1.[Cl-].[Cl-].[Ru+2].c1ccc2cc3nc4c5cccnc5c5ncccc5c4nc3cc2c1  EC50 (A-375; photocytotoxicity, resazurin; visible light 400-700 nm, 20 mW, 100 J/cm2): 0.867 µM
COc1nc(Nc2nc(O)c3ccccc3n2)nc2ccc(C)cc12  AC50 (Mus musculus; gene silencing, high-content imaging; LDR reporter GFP cells; retest run 1): 39.8 µM
CNS(=O)(=O)Nc1nccc(Cc2c(C)c3ccc(Oc4ncccc4F)cc3oc2=O)c1F  IC50 (OCI-Ly1; cell viability; 7 days): > 1 µM
CC1=C/C(=N\N=C(/S)Nc2cccnc2)CC(C)(C)C1  Emax (Mus musculus; gene silencing, high-content imaging; LDR reporter GFP cells; 30 h, retest run 2): 68%
CC[n+]1cccc2cc(/C=N/NC(=O)c3cc(C(=O)N/N=C/c4ccc5c(ccc[n+]5CC)c4)ncn3)ccc21  ΔTm (MYC parallel G4 DNA; FRET melting; 1 µM, DNA 0.2 µM, added: duplex DNA competitor 10 µM): 3.3 ± 0.2 °C
CCN(CC)CC(=O)Nc1cccc(-n2cc(-c3ccc4ccc(-c5cn(-c6cccc(NC(=O)CN(CC)CC)c6)nn5)cc4c3)nn2)c1  fold regulation (RCC4; PCR angiogenesis array, item: COL18A1; 5 x IC50, 4 h, normoxia; reference: untreated): -1.21

For quick reference, copied from above:
C[n+]1ccc(/C=N/NC(=O)c2cccc(C(=O)N/N=C/c3cc[n+](C)c4ccccc34)n2)c2ccccc21  delta Tm (MYC promoter parallel G-quadruplex DNA; UV melting; 6 µM, 1 mM potassium, added: DNA 3 µM): 27.5 °C
CCN(CC)CC(=O)Nc1cccc(-n2cc(-c3ccc4ccc(-c5cn(-c6cccc(NC(=O)CN(CC)CC)c6)nn5)cc4c3)nn2)c1  fold regulation (RCC4; PCR angiogenesis array, item: COL18A1; 5 x IC50, 4 h, normoxia; reference: untreated): -1.21
